Experimental data from different studies.
Every numbered part comes from another study and shows a few of its results, in no order.

Study 1 — method: RNA Bind-n-Seq; form: RNA; medium: in vitro; concentration: 1 µM; setting: whole 134-nt RNA, ends assumed; with: 150 mM KCl; relative to: input library; direction: higher = stronger binding
Target: Ras GTPase-activating protein-binding protein 1, C-terminal RGG region (G3BP1, Homo sapiens, UniProt Q13283)
UniProt Q13283, sequence (whole entry, looked up): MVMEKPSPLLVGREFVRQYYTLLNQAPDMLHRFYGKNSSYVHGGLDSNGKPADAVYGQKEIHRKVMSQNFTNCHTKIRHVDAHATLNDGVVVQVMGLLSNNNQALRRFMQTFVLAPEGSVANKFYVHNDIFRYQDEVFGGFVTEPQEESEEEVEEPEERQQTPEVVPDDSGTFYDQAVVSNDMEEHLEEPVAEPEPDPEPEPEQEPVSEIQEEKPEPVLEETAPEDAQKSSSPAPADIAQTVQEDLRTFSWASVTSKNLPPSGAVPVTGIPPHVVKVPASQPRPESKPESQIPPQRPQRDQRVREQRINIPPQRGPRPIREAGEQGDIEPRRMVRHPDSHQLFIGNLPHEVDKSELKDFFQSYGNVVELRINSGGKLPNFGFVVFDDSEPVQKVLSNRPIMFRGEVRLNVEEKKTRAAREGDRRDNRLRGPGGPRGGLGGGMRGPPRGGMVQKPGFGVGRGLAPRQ
Shared flanks, not repeated: GGGAGUUCUACAGUCCGACGAUC … UGGAAUUCUCGGGUGUCAAGG
Oligonucleotide | log2 enrichment
CACAGACAACACGCACCAACACAGACACAGAGGGAAGGGGUUGGGAUGGGGACAGGGUGCACAGCAGGGCGGGGUAGGACCCCAGCCCCU | 0.444
UGGCCCUGGUGGCAUGCGGGGAGGAAGAGGUGGCCUGAUGGAUCGUGGUGGUCCCGGUGGAAUGUUCAGAGGUGGCCGUGGUGGAGACAG | 2.13
CCUCAAGUCCUGUGCUACACAUCGUAUGUACCGAAUCGGUGGUUUUUGGAGGAAAGUAUUAUGUUACGCCGUUCGGAUCUGCACUUCCAG | -0.481
CCUGUGCUACACAUCGUAUGUACCGAAUCGGGUUUUUUGGGUUUUUUGGGGUUUUUUGGGGAAAGUAUUAUGUUACGCCGUUCGGAUCUG | -0.999
ACCAUGCAGGUGGGCAUCCUUGGGAAGUGGGGCAAGGGGGGGAUAGGGAGGGGGGUAACACUUUGGGAACAGGUGGUCCCAGGUCGUUUC | -1.08
GUCCUGUGCUACACAUCGUAUGUACCGAAUCGGGUUUUUGGGUUUUUGGGAAAAAGGGAAAGUAUUAUGUUACGCCGUUCGGAUCUGCAC | -0.67
AGUCCUGUGCUACACAUCGUAUGUACCGAAUCGGUUUGGAAAAAAAGGUUUUUUUGGAAAGUAUUAUGUUACGCCGUUCGGAUCUGCACU | -2.24
UGGGAGGUGGAUUUUGUUUAUUUUUUUAGCUCAUUUCCAGGGAUGGGAAUUUUUUUUUAAUAUGUGUCAUGAAUAAAGUUGUUUUUGAAA | 2.42
CUCAAGUCCUGUGCUACACAUCGUAUGUACCGAAUCGGAAGGGGAAGGGAAGGAAAGUAUUAUGUUACGCCGUUCGGAUCUGCACUUCCA | -1.06
CACAGACAACACGCACCCACACAGACACAGAGGGAAGGGGUUGGGAUGGGGACAGGGUGCACAGCAGUGCGGGGUAGGACCCCAGCCCCU | -0.591
ACCAUGCAGGUGGGCAUCUUUGGGAAGUGGGGCAAGGGGGGAAAAGGGAGGGGGGUAACACUUUGGGAACAGGUGGUCCCAGGUCGUUUC | -0.791
UGGGAGGUGGUUUUUGUUUAUUUUUUUAGCUCAUUUCCAGGGGUGGGAAUUUUUUUUUAAUAUGUGUCAUGAAUAAAGUUGUUUUUGAAA | 2.72
UCCUGUGCUACACAUCGUAUGUACCGAAUCGUGUGUGUGUGUGUGUGUGUGUGUGUGUGAAAGUAUUAUGUUACGCCGUUCGGAUCUGCA | 1.41
AGUCCUGUGCUACACAUCGUAUGUACCGAAUCGGAAAAAGGGAAAAAGGGGAAAAAGGAAAGUAUUAUGUUACGCCGUUCGGAUCUGCAC | -1.56

Study 2 — method: RNA Bind-n-Seq; form: RNA; medium: in vitro; concentration: 365 nM; relative to: no-protein control; direction: higher = stronger binding
Target: RNA binding protein fox-1 homolog 2, RRM domain, GST-SBP tag (RBFOX2, Homo sapiens, UniProt O43251-10, residues 100-194)
Setting: natural RNA segment, single round, ends assumed
Shared flanks, not repeated: GGGAGUUCUACAGUCCGACGAUC … UGGAAUUCUCGGGUGCCAA
Oligonucleotide | RBNS enrichment (R)
AAGCAUAUGUGCAUGCGUGCGUGUGUAUAUAAAUGCCUUUUCCAUAUCUUAAAUGUCCCUGAUGAGGAGAGCAGUCAUCAAUUAAAUAUAUAAGCUCUUAAAAUGAGAAU | 0.98
AAAAUCUGCUAAACAUUUGCAAUCUUACAUUUGUAUUUUAAUACCAGAGUGAGGUUUAGCUUUGUCUUUCUGGGAUUCUCAGGUUCCACAGUAAUUACAAGCUGACUUUU | 0.434
CUCACUCGACCUUGGGAGGCCUCCCACGAAGGGCGAAGAUGGCCGAGAUGAUCCUAAAAAUAACCGAAGAAAGAGAGGACCAACCAGAAUUCCCUUUGGACAUUUGUGUU | 0.383
UCACUGCCACUUUGACAAAAGCCCAAUUAGAAGCCAGUCUCUAGUUCCUUAAACAAAACAGACAGAGUAAGGAAAGGAAGGAGGGUGGCAGCCAGCUGGCUGGACACUCG | 0.404
CCAGUCUUAACGUUUAUCUUUGAAUGCUAUUUAUUCAAAUAGCGUGAGGAGUUAGAAGAUGAGGUGUCUAUGAUGUUGAUGUAAUGUAUACGUAGGCGAUAUAUGUAAGU | 0.487
AUAAAUACCAGAAUUUACCAGAGUACACUUUUCUCUUCAGAUGACUCAAUUAUUAAAUAAAAGAAUAUUUCUUAUUUCUGGGUCAAUAUAAGGUACUGACUUCUGAUGCA | 2.23
UUUGUGGUUUCCUCUAUUUUGAAUUUUUUGAUCAAAAAACUGAUUAGCAGAAUAUAGUUUGGAGUUUGGCUUCAUCUUCCUGGGGUUCCCCUCACUCCCUUUUUUGUCAA | 0.998
UGAGAAACAUUGAAAGCAGGUUAAAUGUUUUGUAACUUUGAAAUACAAAGUCUAAUGCAUAAGCAGAACCGAAAAGCAGACCGACAAUUGGUUAACAAAUAAUUCUUUUU | 0.364
UUUACACGGCUUAUGGUGGAUGAGGACAAAAACUUUGGAAUAGCAAGCUAACACUGAAAAAAAAAAUGACAAAUUAAUGUGUCCUAUUAUCCAGGCUACAUCAGGAGGUU | 0.674
UGUUGUUCAGUAUGCAAAUCAAUUAUUUUAAGAAUCGCUUUUGUAAAUAUCUUUGUGAAUAUUUUAGUAUCGUCUUUGAUAAUAUUCAACAUUUUCAUGACCUGGUUAUA | 1.15
GUUCCGGGUAGGCCUUGAUAUCACCUCUGGGACUGUGCCUUGCUCACCGAAACCCGCGCCCAGGAGUAUGGCUGAGGCCUUGCCCACCCACCUGCCUGGGAAGUGCAGAG | 0.693
AUUGUUUGAUAUUGUCACCUAGCAGAUAUGUAUUACUUUUCUGCAAUGUUAUUAUUGGCUUGCACUUUGUGAGUAUUCUAUGUAAAAAUAUAUAUGUAUAUAAAAUAUAU | 1.17

Study 3 — method: protein binding microarray; form: double-stranded DNA, one strand shown; medium: in vitro; concentration: not given; relative to: not given; direction: higher = stronger binding
Target: Histone acetyltransferase KAT6A, winged helix 2, GST fusion (KAT6A, Homo sapiens, UniProt Q92794, residues 85-181)
Setting: 8-mer, flanks averaged, mean of 2 arrays, mostly near background
Residues (chain): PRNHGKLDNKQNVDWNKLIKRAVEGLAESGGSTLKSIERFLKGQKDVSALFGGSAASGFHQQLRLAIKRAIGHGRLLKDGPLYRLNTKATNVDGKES
Oligonucleotide | E-score
AGGTCAGA | -0.104
GCTGTAAC | -0.00349
CAGTTTAC | 0.0265
CAGGGATG | 0.0602
ATAAAACG | -0.0039
ACGCTGCC | -0.0457
AGTTGGCA | 0.0128
AATGTAGC | 0.0147
GAAGATAC | 0.0038
CACAAAAG | 0.26
CTTACCCA | 0.0287
ATCAAAGG | -0.0921
CTTATCCC | -0.175
CACACATC | -0.0494
CTATTCGC | 0.0784
AACCCCCC | -0.338
CAGGATGC | 0.082
AACAAGAT | 0.0413
ATTTACCA | 0.077
CTCCGACA | 0.0149
ACTAAGCG | -0.115
AACTGTTG | -0.169
AACAGACT | -0.15

Study 4 — method: competition protein-binding microarray; form: double-stranded DNA, one strand shown; medium: in vitro; concentration: 2 µM; with: Pho4 competitor, 0.05 µM; direction: higher = stronger binding; shared flanks, not repeated: … GTCTTGATTCGCTTGACGCTGCTG
Target: Centromere-binding protein 1, full length, His-tagged (CBF1, Saccharomyces cerevisiae, UniProt P17106, residues 1-351)
UniProt P17106, sequence (whole entry, looked up): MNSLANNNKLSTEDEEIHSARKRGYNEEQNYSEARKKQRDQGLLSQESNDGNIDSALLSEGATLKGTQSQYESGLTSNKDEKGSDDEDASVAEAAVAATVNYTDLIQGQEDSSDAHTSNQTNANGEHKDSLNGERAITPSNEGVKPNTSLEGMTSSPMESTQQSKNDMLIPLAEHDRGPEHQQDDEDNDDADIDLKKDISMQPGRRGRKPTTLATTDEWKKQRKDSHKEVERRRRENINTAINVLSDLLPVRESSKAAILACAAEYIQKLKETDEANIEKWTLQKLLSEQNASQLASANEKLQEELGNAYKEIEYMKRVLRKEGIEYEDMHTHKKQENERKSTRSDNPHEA
Setting: whole 60-bp probe, lowest competitor level
Oligonucleotide | fluorescence intensity [a.u.]
CCCAAGAACAGGGCCCTCGTGGTCGTCAAATCTGTG | 116
CTTTCCCGATCTTTTCACGTGCGGTTAGCACATTTG | 765
TCGGTTACGTACGATAACGTGATTGTGCCACAGGAG | 489
AAAGCAGCTTCGGGGTGCGTGATGGAAAAATGCGAC | 159
AGCTTGGGGTGCTTGGGCGTGCGATGCTCGAGGCAT | 54.8
CTTCTGTAAATTTGCCGTGTGGGTGGACGCGCCCCG | 67.4
AAAGCGGTAATTTGTATGGTGGGTGCAGATATCTAT | 64.2
GTCTTGTCTCATTGTCACTCCACTTTCCCCACTTCA | 86.3
CGGCTCCCGCTCGGCCTCGTGACTCCCGCGGAGACC | 462
ATCTTCTGGCCGAGTCACGGGCCAAGCGTAAGGGTG | 329
TAATAGGCCTGCTGGCACGTTGTTGAATGGCAGATG | 114
AAATTACTAAGTTGGAGCGTGGGTGACGCCGTATGA | 61.7
CGCCTTCTAATGGACATTCTTCTCAAACTCTACAAA | 64.1
CAGATGGTTCTCCATCACGTCTCTGATTATGCCTAT | 91.6
TGTTAGTCAATTGCTCGCGTGGGACGACATTCTCTT | 68.5
CGACAAATAGTAGCTCGCGTGGCCGAATGGCAACGC | 70.6

Study 5 — method: universal PBM; form: double-stranded DNA, one strand shown; medium: in vitro; concentration: 600 nM; direction: higher = stronger binding
Target: Sal-like protein 4, full length isoform A (SALL4, Homo sapiens, UniProt Q9UJQ4, residues 1-1053)
UniProt Q9UJQ4, sequence (whole entry, looked up): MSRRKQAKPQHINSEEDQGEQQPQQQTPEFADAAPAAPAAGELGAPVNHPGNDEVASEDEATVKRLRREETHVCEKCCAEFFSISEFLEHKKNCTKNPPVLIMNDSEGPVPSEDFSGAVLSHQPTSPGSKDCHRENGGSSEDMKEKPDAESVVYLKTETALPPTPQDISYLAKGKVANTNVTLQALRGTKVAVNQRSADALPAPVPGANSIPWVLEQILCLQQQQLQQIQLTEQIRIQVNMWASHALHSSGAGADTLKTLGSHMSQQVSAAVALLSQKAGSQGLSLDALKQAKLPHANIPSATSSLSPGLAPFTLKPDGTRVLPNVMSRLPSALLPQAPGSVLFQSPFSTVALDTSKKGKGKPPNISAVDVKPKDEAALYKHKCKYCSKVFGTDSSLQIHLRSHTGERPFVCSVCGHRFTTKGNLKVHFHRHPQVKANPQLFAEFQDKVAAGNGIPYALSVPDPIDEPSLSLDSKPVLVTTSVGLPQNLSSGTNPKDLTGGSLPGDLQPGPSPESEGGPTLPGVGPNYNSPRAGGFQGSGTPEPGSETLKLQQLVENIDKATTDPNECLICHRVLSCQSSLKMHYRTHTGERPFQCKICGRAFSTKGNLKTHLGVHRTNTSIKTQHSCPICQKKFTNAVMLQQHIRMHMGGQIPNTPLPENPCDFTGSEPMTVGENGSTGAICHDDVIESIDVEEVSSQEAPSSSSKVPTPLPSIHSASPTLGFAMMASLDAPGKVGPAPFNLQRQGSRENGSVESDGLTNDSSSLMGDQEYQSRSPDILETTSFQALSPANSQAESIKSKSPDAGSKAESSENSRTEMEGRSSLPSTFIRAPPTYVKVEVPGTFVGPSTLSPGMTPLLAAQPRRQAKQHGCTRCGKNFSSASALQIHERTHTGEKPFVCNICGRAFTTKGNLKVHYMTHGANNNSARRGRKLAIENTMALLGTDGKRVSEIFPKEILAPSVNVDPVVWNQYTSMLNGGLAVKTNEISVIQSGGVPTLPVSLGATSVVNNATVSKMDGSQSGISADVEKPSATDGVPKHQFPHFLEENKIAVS
Setting: 8-mer, flanks averaged, mean of replicates
Oligonucleotide | E-score
CGGGACTC | -0.303
AACCGAAT | 0.122
AACGAGAA | 0.251
GAGCACCC | -0.348
AGTGCAGC | -0.169
AGGTAGAC | -0.133
AATTTAAT | 0.307
AGGGCGTA | -0.0875
CCGACTAG | -0.212
AGTGCGAA | -0.156
CTGCAGGA | -0.0038
CATCTAAC | 0.0735
GCGGTTCC | -0.198
GCAACCCC | -0.293
AAGACAGT | -0.0616
AGCCTAGA | -0.155

Some of these lines once more (study 1):
Oligonucleotide | log2 enrichment
CCUCAAGUCCUGUGCUACACAUCGUAUGUACCGAAUCGGUGGUUUUUGGAGGAAAGUAUUAUGUUACGCCGUUCGGAUCUGCACUUCCAG | -0.481
CCUGUGCUACACAUCGUAUGUACCGAAUCGGGUUUUUUGGGUUUUUUGGGGUUUUUUGGGGAAAGUAUUAUGUUACGCCGUUCGGAUCUG | -0.999
ACCAUGCAGGUGGGCAUCCUUGGGAAGUGGGGCAAGGGGGGGAUAGGGAGGGGGGUAACACUUUGGGAACAGGUGGUCCCAGGUCGUUUC | -1.08
GUCCUGUGCUACACAUCGUAUGUACCGAAUCGGGUUUUUGGGUUUUUGGGAAAAAGGGAAAGUAUUAUGUUACGCCGUUCGGAUCUGCAC | -0.67
AGUCCUGUGCUACACAUCGUAUGUACCGAAUCGGUUUGGAAAAAAAGGUUUUUUUGGAAAGUAUUAUGUUACGCCGUUCGGAUCUGCACU | -2.24
UGGGAGGUGGAUUUUGUUUAUUUUUUUAGCUCAUUUCCAGGGAUGGGAAUUUUUUUUUAAUAUGUGUCAUGAAUAAAGUUGUUUUUGAAA | 2.42
CUCAAGUCCUGUGCUACACAUCGUAUGUACCGAAUCGGAAGGGGAAGGGAAGGAAAGUAUUAUGUUACGCCGUUCGGAUCUGCACUUCCA | -1.06
CACAGACAACACGCACCCACACAGACACAGAGGGAAGGGGUUGGGAUGGGGACAGGGUGCACAGCAGUGCGGGGUAGGACCCCAGCCCCU | -0.591
ACCAUGCAGGUGGGCAUCUUUGGGAAGUGGGGCAAGGGGGGAAAAGGGAGGGGGGUAACACUUUGGGAACAGGUGGUCCCAGGUCGUUUC | -0.791
UGGGAGGUGGUUUUUGUUUAUUUUUUUAGCUCAUUUCCAGGGGUGGGAAUUUUUUUUUAAUAUGUGUCAUGAAUAAAGUUGUUUUUGAAA | 2.72
UCCUGUGCUACACAUCGUAUGUACCGAAUCGUGUGUGUGUGUGUGUGUGUGUGUGUGUGAAAGUAUUAUGUUACGCCGUUCGGAUCUGCA | 1.41
AGUCCUGUGCUACACAUCGUAUGUACCGAAUCGGAAAAAGGGAAAAAGGGGAAAAAGGAAAGUAUUAUGUUACGCCGUUCGGAUCUGCAC | -1.56
